Measured values from different studies.
Numbered parts are unrelated; each lists some results of a single study. Changes are numbered by the printed parent chain.

Sample 1
Target: RNA binding protein fox-1 homolog 2, RRM domain, GST-SBP tag (RBFOX2, Homo sapiens, UniProt O43251-10, residues 100-194)
Method: RNA Bind-n-Seq
Molecule type: RNA
Medium: in vitro
Tested at: 365 nM
Setting: natural RNA segment, single round, ends assumed
Baseline: no-protein control
Direction: higher = stronger binding
Construct (chain): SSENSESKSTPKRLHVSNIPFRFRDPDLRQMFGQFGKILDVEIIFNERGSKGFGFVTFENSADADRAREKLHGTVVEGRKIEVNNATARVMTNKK
Oligonucleotide | RBNS enrichment (R)
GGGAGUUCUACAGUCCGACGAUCUGGACCCACAGCCCUGACUUCACCUAGAAGACUGAAGCCUCCCCCUCCAACUCCCAUGCUGUGCGUGUCCCUCUGAGAACCAACUGAGGCUAGAACCCUAGGGUCCCUGCUGGAAUUCUCGGGUGCCAA | 0.451
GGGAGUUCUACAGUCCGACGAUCACCUGUGUACUUGUACAUUAAAAACAAAAUUAUUGCUGAGUAAGAAGAUAUUUAAUAUAUGAAACUCUCAUAACUGUCAUUAACAGUAUUAAUUAGGUCUAAAUACCGUGUGGAAUUCUCGGGUGCCAA | 0.28
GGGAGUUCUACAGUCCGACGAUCCUCACUGGGACUGGAGACCUCGUUCCUUCACCCCGCGUGUCGCCAGCCUCUGGGUCCAGCCAGAGCCCCUGGCUUCUCCGCCACCCACACCCUUCCCACCCUGCUGUGGGUGGAAUUCUCGGGUGCCAA | 0.468
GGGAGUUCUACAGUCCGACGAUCUGGGAGUUAGCAACAUUUGAGGAUGUUGUAGGUACUUUAUUACAUUUUUUUGUAGUUUAAAGAGCUUUAUUAAUGCAAUAAAUUAACUUUGUACAUUUUUAUAUUAAAAAUGGAAUUCUCGGGUGCCAA | 0.616
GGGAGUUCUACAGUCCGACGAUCCAUACCUAUUAAAAAAAAAUGUGGAGUUGGAGGGCUAACAUAUUUAAUUAAAUAAAUAAAUAAAUCUGGGUCUGCAUCUCUUAUUAAAUAAAAAUAUAAAAAUAUGUACAUGGAAUUCUCGGGUGCCAA | 1.33
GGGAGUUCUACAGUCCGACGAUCUCAGUGACACCGUCCUGCCUAACCAGAUGCGGUCAGCCUCUUCACACCCACCUGGCUUGCAUCCCCCAUCCCUUGUUCACACGCCCUGAUUCACGGUGAGACAUUUUGCCUGGAAUUCUCGGGUGCCAA | 0.916
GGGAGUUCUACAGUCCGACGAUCGAGAAGAGCCCUGGUCAGUGGCCUUGGAUUGUCACUUCUUUCAGGAUAAAGAUCCCUUGGGGGGGGGGGAGUUGGAUGUUUGACUACUAGGAGAUACUAGAGGCUCAGACUGGAAUUCUCGGGUGCCAA | 0.714
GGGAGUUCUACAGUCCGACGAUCAAUGUUCACUUUCUGUUCUCCAGUGUCACUGUUCUGUUUCCACGGGAUGGAAAGCGCAUGGGCCUGUGUCCAUUGUAGAUUUCCUUCUAGAUUUCUGUGUACACACACUUUGGAAUUCUCGGGUGCCAA | 0.337
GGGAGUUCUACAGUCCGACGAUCAUGUUUUCAGGGGAUGCCAUUUAUCCCAAGCUUAUCCUGUAAUUCUAGAAUGACUUGGUGUCCUGAUGCACUUCUCACCAGAGGCUGCCUAGCAGCAUGUGUUAGCCAAAUGGAAUUCUCGGGUGCCAA | 6.26
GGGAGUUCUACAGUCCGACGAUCUGAGGUGGGCUCCCUUCUUUGUAGAUGCCUUUCCUCUCGUAAUAACAACUCCUUGCCCCCAGGGCUCUGGCUGCCAGGGCCUACUGCUGCUUUCCUGGGAAGCCGCAAGUUGGAAUUCUCGGGUGCCAA | 0.903
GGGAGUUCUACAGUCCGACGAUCUUGGUGUCAGGGUCCUGUGGAGUUGUGCCCCACACUGAGCUCUGUACAGUAUUGCUGCUCAUACACUGAGGAGGUGGGGUCGUCUUCUGAGGAUAUGAACUACACUGCUUUGGAAUUCUCGGGUGCCAA | 0.471
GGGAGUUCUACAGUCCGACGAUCUAGUAGCAAUAGCAGAGAGAGCUGUAAAUUCUCAGGUCCUCCUAGACUUAACCAAAUCUGAGUGCCCCGGAUGGAGUUGAGCUCUGCAGGUCAGCUAACUCUAGCUCAGGUGGAAUUCUCGGGUGCCAA | 0.428

Sample 2
Target: Ras GTPase-activating protein-binding protein 1, C-terminal RGG region (G3BP1, Homo sapiens, UniProt Q13283)
UniProt Q13283, sequence (whole entry, looked up): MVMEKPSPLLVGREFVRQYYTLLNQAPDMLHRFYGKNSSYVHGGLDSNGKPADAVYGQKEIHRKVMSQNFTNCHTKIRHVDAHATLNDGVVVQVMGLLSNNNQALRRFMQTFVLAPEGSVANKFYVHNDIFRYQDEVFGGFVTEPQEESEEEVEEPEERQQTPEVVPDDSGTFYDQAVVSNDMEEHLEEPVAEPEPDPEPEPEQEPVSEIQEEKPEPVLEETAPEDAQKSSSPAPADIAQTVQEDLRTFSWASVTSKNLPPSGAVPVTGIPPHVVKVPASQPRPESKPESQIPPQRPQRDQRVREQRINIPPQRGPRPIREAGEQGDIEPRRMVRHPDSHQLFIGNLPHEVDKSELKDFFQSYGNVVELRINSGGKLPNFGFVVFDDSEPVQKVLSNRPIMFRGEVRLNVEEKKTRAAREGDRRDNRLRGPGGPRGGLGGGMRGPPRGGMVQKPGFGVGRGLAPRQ
Method: RNA Bind-n-Seq
Molecule type: RNA
Medium: in vitro
Tested at: 1 µM
Setting: whole 134-nt RNA, ends assumed
Together with: 150 mM KCl
Baseline: input library
Direction: higher = stronger binding
Oligonucleotide | log2 enrichment
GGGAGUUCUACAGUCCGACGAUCGCAGGAAGUAAAAACAAAUGGAAAUGCUUCGGAUAGGGGCAGGGGUGGGGGUUGCUAAGGAAAGGGUGGGAUGGGAGUGGGUAAAGAGUUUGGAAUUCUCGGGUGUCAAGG | 0.892
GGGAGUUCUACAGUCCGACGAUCGCAGGAAGUAAAAACAAAUGGAAAUGCUUCGGAUAGUGGCAGGGGUGGGGGUUGCUAAGGAAAGGGUGGGAUGGGAUUGGGUAAAGAGUUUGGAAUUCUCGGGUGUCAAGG | 2.32
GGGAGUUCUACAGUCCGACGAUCACCAUGCAGGUGGGCAUCUUUGGGAACUGGGGCAAGGGGGGGAUAGGGAGGGGGGUAACACUUUGGGAACAGGUGGUCCCAGGUCGUUUCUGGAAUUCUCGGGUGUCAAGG | -1.48
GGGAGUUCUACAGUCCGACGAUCUAACUUUAGAGGAGGAUCUGAUGGAUAUGGCAGUGGACGUGGAUUUGGGGAUCGCUAUAAUGGGUAUGGAGGAGGACCUGGAGGUGGCAAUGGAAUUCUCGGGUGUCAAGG | -0.297
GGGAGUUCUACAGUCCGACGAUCGUCCUGUGCUACACAUCGUAUGUACCGAAUCGGGUGGGAAAAAAAGGGUUUUUUUGGGAAAGUAUUAUGUUACGCCGUUCGGAUCUGCACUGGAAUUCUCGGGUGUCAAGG | -0.248
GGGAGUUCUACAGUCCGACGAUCUUCCGCGACUACCGGCGUGUGCACAAGCCGCCCAAGGUGCAGGAGAAGUGCCAGCUGGAGAUCAACUUCAACACGCUGCAGACCAAGCUGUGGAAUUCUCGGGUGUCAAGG | -1.72
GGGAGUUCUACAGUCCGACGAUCUGGGAGGAGGAUUUUGUUUAUUUUUUUAGCUCAUUUCCAGGGGUGGGAAUUUUUUUUUAAUAUGUGUCAUGAAUAAAGUUGUUUUUGAAAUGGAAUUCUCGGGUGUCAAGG | 3.17
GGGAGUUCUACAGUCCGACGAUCCAAGUCCUGUGCUACACAUCGUAUGUACCGAAUCGGUUUGGGGUUUGGGGUUUGGGAAAGUAUUAUGUUACGCCGUUCGGAUCUGCACUUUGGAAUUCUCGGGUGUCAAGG | -0.43
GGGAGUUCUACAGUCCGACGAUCUACCUGAUCAAUGACAGAGCCUUCUGAGGACAUUCCAAGACAGUAUACAGUCCUGUGGUCUCCUUGGAAAUCCGUCUAGUUAACAUUUCAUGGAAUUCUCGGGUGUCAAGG | -2.22
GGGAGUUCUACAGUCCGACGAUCUCCUGUGCUACACAUCGUAUGUACCGAAUCGGGGUUUUUUUGGGGAGGGGUUUUUGGGGAAAGUAUUAUGUUACGCCGUUCGGAUCUGCAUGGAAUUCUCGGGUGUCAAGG | 1.78

Sample 3
Target: ABI1, truncated, D143A, DHFR fusion (Arabidopsis thaliana)
Method: DHFR PCA, deep sequencing
Medium: yeast
Setting: methotrexate growth selection, single substitutions
Together with: (+)-ABA 0 µM
Baseline: wild-type fitted maximum
Direction: higher = stronger binding
Starting sequence: PYL1, truncated, DHFR fusion (Arabidopsis thaliana); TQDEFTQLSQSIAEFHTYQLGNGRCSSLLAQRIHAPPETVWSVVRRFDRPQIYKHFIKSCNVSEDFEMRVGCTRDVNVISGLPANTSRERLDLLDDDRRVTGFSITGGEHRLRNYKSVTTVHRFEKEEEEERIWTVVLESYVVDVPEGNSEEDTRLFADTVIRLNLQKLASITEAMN
Change | relative binding score [%]
V70G | -1.15
E147W | -2.13
E127Y | 15.2
T17L | -0.975
Q31R | 5.85
G148A | 3.7
E130K | 40.6
N22T | 34.8
R69L | 1.77
Y53V | -4.1
I105S | 1.64
R74A | 2.43
I33E | 3.13
E129A | 30.6
L166G | 6.08
I105W | 3.69
L138N | -6.13
G71D | 10.4
I12W | -0.708
D95K | -7.33
T73L | 12.3
A170C | 6.93
L164G | 9.64
L28N | -1.4
F103V | -2.7

Sample 4
Target: Interferon regulatory factor 7, full length, phosphomimetic (IRF7, Homo sapiens, UniProt Q92985, residues 1-503, S471D/S472D/S475D/S476D/S477D/S483D/S484D/S487D)
UniProt Q92985, sequence (whole entry, unmodified, looked up): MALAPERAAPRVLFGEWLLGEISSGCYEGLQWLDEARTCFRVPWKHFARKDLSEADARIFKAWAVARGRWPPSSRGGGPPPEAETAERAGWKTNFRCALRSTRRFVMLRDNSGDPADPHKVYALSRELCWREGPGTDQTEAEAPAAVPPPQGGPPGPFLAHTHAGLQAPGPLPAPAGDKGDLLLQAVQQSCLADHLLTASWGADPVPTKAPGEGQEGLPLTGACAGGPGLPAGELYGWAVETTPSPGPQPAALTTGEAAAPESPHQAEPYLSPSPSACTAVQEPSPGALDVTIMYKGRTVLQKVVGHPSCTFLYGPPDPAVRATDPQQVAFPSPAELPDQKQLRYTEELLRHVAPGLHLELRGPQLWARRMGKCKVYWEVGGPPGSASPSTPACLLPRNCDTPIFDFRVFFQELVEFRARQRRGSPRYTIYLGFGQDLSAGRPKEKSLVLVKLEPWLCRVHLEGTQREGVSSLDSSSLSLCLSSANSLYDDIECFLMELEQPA
Method: protein-binding microarray
Molecule type: double-stranded DNA, one strand shown
Medium: in vitro
Tested at: 2200 nM top
Setting: 60-bp whole probe
Together with: salmon DNA 0.4 mg/ml
Baseline: random background probes
Direction: higher = stronger binding
Shared flanks, not repeated: GCCTAGCAC … GTCTTGATTCGCTTGACGCTGCTG
Oligonucleotide | fitted relative affinity [z-score]
TTAGATATTAGTATCGATTAGTGCTAG | 0.182
ATTGCTTTCTCTTTCATTGCGTGCTAG | 7.25
TTAGGTCTCGCTCTCGGTTAGTGCTAG | 0.97
TTAGAACTGAGGCTGGATTAGTGCTAG | -0.728
GACGGTTCCGGACTGGGGACGTGCTAG | 0.102
TGAGGTATCCTACTGCTTTAGTGCTAG | 0.282
GACAAACTGGGGACTGGAGACGTGCTA | -0.209
GGCGGTATCGGTCTCGGGACGTGCTAG | -0.589
TTCTAAATATCTTTGTTGAAGTGCTAG | -0.0828
GACGGTTTCGACGTTCGGGACGTGCTA | 2.38
GACGAACTGGGTTATCGAGACGTGCTA | 0.0644
TCATATATAATATATATTACTGTGCTA | 0.335
GACGGAATGGACTATCGGGACGTGCTA | -0.22
TCATCCTTTACTTTCTTACTGTGCTAG | 3.1
TTTTTCTCCTATTTAAGACAGTGCTAG | 1.83
GTAGGTATCGACTATCGGTTAGTGCTA | 0.37
TTAGGTATCGGGTATCGGTAAGTGCTA | 0.579
TTAGTTCTCAGACTGGATTAGTGCTAG | 0.346
TTAGAACTGAGACTAGATTAGTGCTAG | -1.06
GCCGGTTTCGGTATCGGGACGTGCTAG | 9.7
TTAGGTCTCGGTGTCGGTTAGTGCTAG | 0.508
GCCGGTTTCGACTATCGGGACGTGCTA | 5.02
GTCGGACTGGACTATCGGGACGTGCTA | -0.537
TTAGGACTGGGGTTTCGGATAGTGCTA | 0.627
GACAGACTGGGTCTCGGGACGTGCTAG | -0.537

A few entries again (sample 4):
Oligonucleotide | fitted relative affinity [z-score]
GACAAACTGGGGACTGGAGACGTGCTA | -0.209
GACAGACTGGGTCTCGGGACGTGCTAG | -0.537
TCATATATAATATATATTACTGTGCTA | 0.335
ATTGCTTTCTCTTTCATTGCGTGCTAG | 7.25
TTAGAACTGAGGCTGGATTAGTGCTAG | -0.728
